Measurements gathered from unrelated publications.
Protocols differ between the studies behind these lines. “And” joins repeats or separate records; there may be more than shown. Numbers after ± are the reported error.
uncharacterized protein: uncharacterized protein (Anopheles coluzzii, UniProt A0A6E8VQK1)

Compound	target	test	system	conditions	how to read	measurement	value
CC1=NCCc2c1[nH]c1cc(O)ccc21	DNA cross-link repair 1A protein (DCLRE1A, Homo sapiens, UniProt Q6PJP8)	exonuclease activity, inhibitor, fluorescence HTS	–	10 µM, 80 min, added: 8 nM 5P-FQ substrate	–	remaining activity	16.6%
O=C(Nc1cccnn1)N1CCC(=Cc2cccc(Oc3ccc(C(F)(F)F)cn3)c2)CC1	Alpha-1A adrenergic receptor (Adra1a, Rattus norvegicus, UniProt P43140)	binding	–	10 µM, added: [3H]prazosin	–	inhibition	19%
N[C@@H](Cc1ccc(O)c(I)c1)C(=O)O	Iodotyrosine deiodinase (Haliscomenobacter hydrossis, UniProt F4KU78, R38E)	–	–	–	reference: wild type over mutant	affinity loss	78 fold
CC(C)[C@@H]1NC(=O)[C@H](C)OC(=O)[C@@H](C(C)C)NC(=O)[C@@H](C(C)C)OC(=O)[C@H](C(C)C)NC(=O)[C@H](C)OC(=O)[C@@H](C(C)C)NC(=O)[C@@H](C(C)C)OC(=O)[C@H](C(C)C)NC(=O)[C@H](C)OC(=O)[C@@H](C(C)C)NC(=O)[C@@H](C(C)C)OC1=O	Metalloendopeptidase OMA1, mitochondrial (OMA1, Homo sapiens, UniProt Q96E52)	Western blot, refers to: Luke-S1	HEK293T, control siRNA	concentration not given	–	protein level	7.2 ± 4.4%
O=C(O)COP(=O)(O)O	TPI1 (Saccharomyces cerevisiae, UniProt P00942, S211A)	enzyme activity, competitive inhibitor, GPDH/NADH-coupled	–	pH 6.4, 25 °C, ionic strength 0.1 NaCl, added: glyceraldehyde 3-phosphate substrate	reference: mutant over wild type	Ki ratio	126
CC[C@H](C)[C@H](NC(=O)CNC(=O)[C@@H](N)CCCCN)C(=O)N[C@@H](CC(C)C)C(=O)N[C@@H](CCCCN)C(=O)N[C@@H](CCCNC(=N)N)C(=O)N[C@@H](CCC(=O)O)C(=O)N[C@@H](CCCCN)C(=O)N[C@@H](CCCNC(=N)N)C(=O)N[C@@H](CC(C)C)C(=O)N[C@@H](CCCNC(=N)N)C(=O)N[C@@H](CCCNC(=N)N)C(=O)N[C@@H](CCCCN)C(=O)N[C@@H](CC(N)=O)C(=O)N[C@H](C(=O)N[C@@H](Cc1c[nH]cn1)C(=O)N[C@@H](Cc1c[nH]c2ccccc12)C(=O)N1CCC[C@H]1C(=O)N[C@@H](CCC(=O)O)C(=O)N[C@@H](CCC(=O)O)C(=O)NCC(=O)N[C@@H](CCCCN)C(=O)N[C@@H](CC(C)C)C(=O)N[C@@H](CCCNC(=N)N)C(=O)N[C@@H](CCC(=O)O)C(=O)N[C@@H](Cc1ccc(O)cc1)C(=O)N[C@@H](Cc1ccccc1)C(=O)N[C@@H](Cc1ccc(O)cc1)C(=O)N[C@@H](Cc1ccccc1)C(=O)N[C@@H](CCC(=O)O)C(=O)N[C@@H](CC(C)C)C(=O)N[C@@H](CC(=O)O)C(=O)N[C@@H](CCC(=O)O)C(=O)N[C@@H](C)C(=O)N[C@@H](CCC(=O)O)C(=O)N[C@@H](CCCNC(=N)N)C(=O)N[C@H](C(=O)N[C@@H](CC(N)=O)C(=O)N[C@H](C(=O)O)C(C)C)C(C)C)C(C)C	Serine/threonine-protein phosphatase PP1-alpha catalytic subunit (PPP1CA, Homo sapiens, UniProt P62136)	binding, isothermal titration calorimetry	–	25 °C, PP1α residues 7-330	–	entropic term −TΔS	-46 ± 7.53 kJ/mol
O=P(O)(O)OC[C@H]1C[C@@](O)(CO)[C@@H](O)[C@H](O)[C@@H]1O	valA (Streptomyces hygroscopicus, UniProt H2K887)	phosphate release	–	50 µM	–	apparent Vmax	2.8 ± 0.4 µM/min
CN(C(=O)n1cnc(-c2ccc[n+]([O-])c2)c1)C1CCCCC1	IP3 receptor, rat	binding	–	10 µM, added: [3H]IP3	–	inhibition	10%
c1cncc([C@@H]2CCCCN2)c1	Chrnd/Chrna1/Chrne (Mus musculus, UniProt P02716+P04756+P20782, G173K/S470W)	single-channel kinetics	–	K chain side site	–	kon	9e+08 M⁻¹ s⁻¹
COc1cc(C=O)cc2c1[C@H](COC(N)=O)[C@]1(OC(C)=O)ON2C[C@H]2[C@@H]1N2C(C)=O	F-box only protein 22 (Homo sapiens, UniProt Q8NEZ5)	binding, affinity selection mass spectrometry	–	100 nM, pooled screen	reference: other proteins	fold change	16.4
CC[C@@H](C)[C@@H](NC(=O)[C@@H](Cc1ccc(O)cc1)NC(=O)[C@H]1CCCN1C(=O)[C@@H](CCCNC(=N)N)NC(=O)[C@H](N)Cc1c[nH]cn1)C(=O)N[C@H](C)C(=O)N[C@H](Cc1c[nH]cn1)C(=O)N[C@H](CCCNC(=N)N)C(=O)N[C@H](CCCCNC(=O)c1cccc(S(=O)(=O)F)c1)C(=O)N[C@H](Cc1ccc(O)cc1)C(=O)N[C@H](CO)C(=O)N[C@H](Cc1ccccc1)C(N)=O	Transferrin receptor protein 1 (Tfrc, Mus musculus, UniProt Q62351)	flow cytometry	B16	24 h, unit not given	reference: 0 h	surface TFRC expression	0.324
C=C(CN(C(=O)c1c(C(F)F)nn(C)c1F)C1CC1)c1ccc(Cl)cc1Cl	SDHD/SDHC/SDHB (Sus scrofa, UniProt A5GZW8+D0VWV4+Q007T0)	enzyme activity, inhibitor, DCIP reduction	pig	0.4 µM, added: DCIP 160 µM	–	reaction velocity	0.0174 µM/s and 0.0152 µM/s and 0.0153 µM/s
Clc1cc2c(cc1Cl)Oc1cc(Cl)c(Cl)cc1O2	Uncharacterized protein (Takifugu rubripes, UniProt Q4JHL6)	reporter gene, agonist, dual-luciferase	COS-7	24 h	reference: top over bottom	maximal fold induction	2.93 ± 0.19
[2H]c1c([2H])c([C@]2([2H])CCCN2C(=O)C(C)(C)Oc2ccc3cn[nH]c3c2)c([2H])c([2H])c1C([2H])([2H])[2H]	Vascular endothelial growth factor receptor 1 (FLT1, Homo sapiens, UniProt P17948)	KINOMEscan	–	1 µM	reference: DMSO control	remaining binding	88%
CC(CCn1ccc(-c2ccc(-c3cn(Cc4ccccn4)nn3)cc2)cc1=O)(C(=O)NO)S(C)(=O)=O (stereo not shown)	UDP-3-O-acyl-N-acetylglucosamine deacetylase (Pseudomonas aeruginosa, UniProt P47205)	fluorescence	–	37 °C	–	residence time	~120 min
Cc1cc(N2CCNCC2)nc2ccccc12	Muscarinic acetylcholine receptor M1 (CHRM1, Homo sapiens, UniProt P11229)	ERK1/2 phosphorylation, agonist	CHO cells	–	–	Emax	< 10%
CNC(=O)Oc1ccccc1OC(C)C	uncharacterized protein	enzyme activity, inhibitor	Sf9 cell homogenate	1.147 µM, 0.1667 h, added: α-naphthyl acetate substrate	reference: no inhibitor	remaining activity	79.2%

Compound	target	test	system	conditions	how to read	measurement	value
CN1CCN(c2cc(-c3ccncc3)c(-c3ccc4ccccc4c3)nn2)CC1	Prostaglandin E2 receptor EP1 subtype (PTGER1, Homo sapiens, UniProt P34995)	–	–	10 µM	–	inhibition	13.2%
NC[C@H](NC(=O)c1ccc(C#Cc2ccccc2)cc1)C(=O)NO	UDP-3-O-acyl-N-acetylglucosamine deacetylase (Pseudomonas aeruginosa, UniProt P47205, C40S)	isothermal titration calorimetry	–	concentration not given, 298 K, untagged protein, averaged	–	entropy change (ΔS)	0.0307 kcal/mol/K
CCOC(=O)CC(SP(=O)(OC)OC)C(=O)OCC (stereo not shown)	uncharacterized protein	enzyme activity, inhibitor	Sf9 cell homogenate	0.344 µM, 0.1667 h, added: α-naphthyl acetate substrate	reference: no inhibitor	remaining activity	33.9%
CC(C)C[C@H](NC(=O)[C@H](Cc1ccccc1)NC(=O)[C@@H]1CCCN1C(=O)[C@H](CCCNC(=N)N)NC(=O)[C@H](CCC(=O)O)NC(=O)[C@@H]1CCCN1C(=O)[C@H](CO)NC(=O)[C@@H](N)CCC(=O)O)C(=O)O	Epithelial sodium channel subunit gamma (Homo sapiens, UniProt P51170)	binding, bio-layer interferometry	–	–	–	kon	1170 M⁻¹ s⁻¹
CC(C)CC(=O)N[C@H](C(=O)N[C@H](C(=O)N[C@@H](CC(C)C)[C@@H](O)CC(=O)N[C@@H](C)C(=O)N[C@@H](CC(C)C)[C@@H](O)CC(=O)O)C(C)C)C(C)C	Cathepsin D (CTSD, Homo sapiens, UniProt P07339)	–	–	–	–	Hill slope	-5.06
Nc1ncc(-c2nc(N3CCOCC3)nc(N3CCOCC3)n2)c(C(F)F)n1	Platelet-derived growth factor receptor alpha (PDGFRA, Homo sapiens, UniProt P16234)	KINOMEscan	–	10 µM	–	remaining binding	80%
O=C(Cc1cccs1)N[C@@H]1C(=O)N2C(C(=O)O)=C(/C=C/c3ccc([N+](=O)[O-])cc3[N+](=O)[O-])CS[C@H]12	Metallo-beta-lactamase type 2 (blaNDM-1, Klebsiella pneumoniae, UniProt C7C422)	hydrolysis, substrate	–	–	–	Km	1.1 ± 0.3 µM
COc1ccc(N2C(=O)N(c3c(C)cccc3Cl)Cc3cnc(Nc4ccc(C5CCN(C)CC5)cc4OC)nc32)nc1	MAP kinase-activated protein kinase 5 (MAPKAPK5, Homo sapiens, UniProt Q8IW41)	kinase activity, inhibitor	–	0.5 µM, kinase PRAK	–	inhibition	2.52%
COc1cc(N)c(Cl)cc1C(=O)NC1CN2CCC1CC2 (stereo not shown)	Probable G-protein coupled receptor 149 (GPR149, Homo sapiens, UniProt Q86SP6)	β-arrestin recruitment, TANGO luminescence, refers to: GPR149	–	concentration not given	reference: basal luminescence	log2 fold change	-0.113
Nc1ncnc2c1ncn2[C@H]1C[C@H](O)[C@@H](COP(=O)(O)OP(=O)(O)OP(=O)(O)O)O1	Gag-Pol polyprotein, reverse transcriptase (gag-pol, Human immunodeficiency virus type 1 group M subtype B, UniProt P04585)	single nucleotide extension	–	G:A mismatched primer-template	–	kcat	0.0457 ± 0.00717 s⁻¹
CN(C)CCNc1nc2cc(O)ccc2c2c1C(=O)c1ccccc1-2.Cl.Cl	Protein transport protein Sec61 subunit alpha isoform 1 (Homo sapiens, UniProt P61619)	reporter gene, Dual-Glo luciferase	HEK293 with CD4 signal peptide-FLuc	unit not given	reference: mock	FLuc luminescence	0.413
N=C(N)NCCC[C@H]1NC(=O)[C@H](Cc2ccc(O)cc2)NC(=O)[C@H](CCCCN)NC(=O)[C@H](Cc2ccccc2)NC1=O	mu opioid receptor guinea pig	antagonist	guinea pig ileum	added: TAPP	–	Ke	814 nM
COc1cc(Nc2ncc(F)c(Nc3ccc4c(n3)NC(=O)C(C)(C)O4)n2)cc(OC)c1OC	Cyclin-dependent kinase-like 3 (CDKL3, Homo sapiens, UniProt Q8IVW4)	KINOMEscan	–	10 µM	–	inhibition	0%
Cc1nn(C)cc1-c1nc2c(N3CCN(Cc4ccc(Cl)cc4)CC3)c(Cl)cnc2[nH]1	Mitogen-activated protein kinase kinase kinase kinase 3 (MAP4K3, Homo sapiens, UniProt Q8IVH8)	KINOMEscan	–	1 µM	reference: DMSO control	remaining binding	62%
O=C(c1ccc(Cl)cc1)N1CCN2C(=O)N(OC(=O)N3CCOc4ccccc43)C(=O)C2C1 (stereo not shown)	Lysosomal phospholipase A and acyltransferase (PLA2G15, Homo sapiens, UniProt Q8NCC3)	MS-based ABPP	SW-620 conditioned medium	10 µM, 1 h, 37 °C	reference: compound over DMSO, lower = more inhibition	mean protein ratio	1.11
O=C(Nc1cnccc1Cl)N1CCN(Cc2ccc3c(c2)OC(F)(F)O3)CC1	Inhibitor of nuclear factor kappa-B kinase subunit alpha (CHUK, Homo sapiens, UniProt O15111)	enzyme activity, inhibitor	–	10 µM	–	inhibition	1%
C[C@H]1CN(c2n[nH]c3nc(N[C@H]4CC[C@H](NS(=O)(=O)CCC(F)(F)F)CC4)ncc23)CCO1	Hsp90 co-chaperone Cdc37 (CDC37, Homo sapiens, UniProt Q16543)	inhibitor, Kinobeads competition profiling	–	20 µM	reference: vehicle	relative abundance	1.1
